Measured values pooled from the literature.
Compare with care: the assays were run in different laboratories. “And” joins repeats or separate records; there may be more than shown. Numbers after ± are the reported error.

CC(C)[C@H](NC(=O)[C@@H]1CCCN1C(=O)[C@H](CCCNC(=N)N)NC(=O)[C@H](CS)NC(=O)[C@H](Cc1c[nH]c2ccccc12)NC(=O)[C@H](CCCNC(=N)N)NC(=O)[C@@H](Cc1ccccc1)NC(=O)[C@H](Cc1c[nH]cn1)NC(=O)[C@H](CCC(=O)O)NC(=O)[C@H](CS)NC(=O)[C@H](CS)NC(=O)[C@H](CCCCN)NC(=O)[C@@H]1CC(=O)N[C@@H](CCCNC(=N)N)C(=O)N[C@@H](C(C)C)C(=O)N[C@@H](CC(=O)O)C(=O)N[C@H](Cc2ccc(O)cc2)C(=O)N1)C(N)=O [technetium-99m labelled] gave an uptake ratio of 1.82 (C57 mouse, female, B16/F1 melanoma; intravenous, 2 h, added: NDP-MSH 10 µg co-injected; relative to: tumour over lung).
The bioavailability of CO[C@H]1O[C@H](COS(=O)(=O)O)[C@@H](O[C@@H]2O[C@@H](C(=O)O)[C@@H](O[C@H]3O[C@H](COS(=O)(=O)O)[C@@H](O[C@@H]4O[C@H](C(=O)O)[C@@H](O[C@H]5O[C@H](COS(=O)(=O)O)[C@@H](O)[C@H](O)[C@H]5NS(=O)(=O)O)[C@H](O)[C@H]4O)[C@H](OS(=O)(=O)O)[C@H]3NS(=O)(=O)O)[C@H](O)[C@H]2OS(=O)(=O)O)[C@H](O)[C@H]1NS(=O)(=O)O is reported as 1.41% (male Wistar rat, plasma; oral, 5 mg/kg).
CNCc1ccc(-c2[nH]c3cc(F)cc4c3c2CCNC4=O)cc1 gave an AUC(0-24 h) of 1920 ng·h/mL (human cancer patients, plasma; intravenous, 18 mg/m2, day 1, added: temozolomide 200).
For CC(=O)N[C@@H](Cc1ccccc1)C(=O)N[C@H]1CCCNC(=O)[C@H](CCCNC(=N)N)NC(=O)[C@H](Cc2c[nH]c3ccccc23)NC(=O)[C@@H](CC2CCCCC2)NC(=O)[C@@H]2CCCN2C1=O, the elimination half-life was 47.7 min (C57BL/6J mice, spinal cord; intraperitoneal, 1 mg/kg).
O=C(O)c1cn(C2CC2)c2cc(N3CCNCC3)c(F)cc2c1=O gave an EC20 of greater than 400 µM (cytochrome c release, ELISA; BALB/cByJ female mouse liver mitochondria; 30 min; relative to: alamethicin maximal release).
The AUC(0-24h) of COc1cccc(-c2ccc(NC(=O)C3=C(C(=O)O)CCC3)c(F)c2)c1 is reported as 78300 ng·h/mL (human, male, plasma; oral, 40 mg once daily, day 0, geometric mean).
For Cc1c2oc3c(C)ccc(C(=O)N[C@@H]4C(=O)N[C@H](C(C)C)C(=O)N5CCC[C@H]5C(=O)N(C)CC(=O)N(C)[C@@H](C(C)C)C(=O)O[C@@H]4C)c3nc-2c(C(=O)N[C@@H]2C(=O)N[C@H](C(C)C)C(=O)N3CCC[C@H]3C(=O)N(C)CC(=O)N(C)[C@@H](C(C)C)C(=O)O[C@@H]2C)c(N)c1=O, the Tmax was 30 min (mouse, Abcc2−/− knockout, FVB background, liver; intravenous, 0.5 mg/kg).
CC(C)C[C@H](NC(=O)CNC(=O)c1cc(Cl)ccc1Cl)B(O)O has a C0 of 56.3 ng/mL (human, plasma; intravenous bolus, 0.5 mg/m^2, day 15).
CC(C)(c1ccc(O)cc1)c1ccc(O)cc1 has a half-life of 182 min (GC-MS; exposure tank water with snails, reconstituted water; 500 ng/L nominal, 27 °C).
For COc1cccc(CN)c1O, the elimination half-life was 36 min (C57BL/6N mouse, male, spleen; intraperitoneal, 200 mg/kg).
With CC(C)(C)c1nn(-c2cc(OCc3cn(Cc4cccc(Br)c4)nn3)c(Cl)cc2Cl)c(=O)o1 the IC50 was < 2.5 µM and 1.3 µM (Toxoplasma gondii; intracellular parasite growth, luminescence; HFF, wild type, NanoLuc reporter; 96 h).
The tissue uptake of CCCC[C@@H]1NC(=O)[C@@H](NC(=O)[C@H](CCC(=O)O)NC(=O)CNC(=O)CN2CCN(CC(=O)O)CCN(CC(=O)O)CCN(CC(=O)O)CC2)CCCCNC(=O)C[C@@H](C(N)=O)NC(=O)[C@H](C(C)C)NC(=O)[C@@H]2CCCN2C(=O)[C@H](CCCNC(=N)N)NC(=O)CNC(=O)[C@H](Cc2c[nH]c3ccccc23)NC(=O)[C@H](CCCNC(=N)N)NC(=O)[C@@H](Cc2ccccc2)NC(=O)[C@H](Cc2c[nH]cn2)NC(=O)[C@H](CCC(=O)O)NC1=O [indium-111 labelled] is reported as 0.03 ± 0.03 %ID/g (normal C57 mice, muscle; intravenous, 0.037 MBq, 2 h).
NC(=O)N1c2ccccc2C=Cc2ccccc21 gave an EC20 of greater than 200 µM (mitochondrial swelling; BALB/cByJ female mouse liver mitochondria; 30 min, added: succinate + rotenone; relative to: CaCl2 maximal swelling).
COc1cc2c(cc1OC)CN(CCc1ccc(NC(=O)c3cc(OC)c(OC)cc3NC(=O)c3cnc4ccccc4c3)cc1)CC2 has a clearance of 262 mL/min (human, plasma; intravenous infusion, 8 mg/kg).
The t1/2 of CNC(=O)c1cc(Oc2ccc(NC(=O)Nc3ccc(Cl)c(C(F)(F)F)c3)cc2)ccn1 is reported as 1600 ± 413 min (LC-MS/MS; nude mouse subcutaneous tumour model, tumour tissue; intratumoral, 2 mg/kg, PDC 3 miR-3609 + EPAS-1 mutant).
With NC(=O)c1cnccn1 the EC20 was greater than 400 µM (mitochondrial swelling; BALB/cByJ female mouse liver mitochondria; 30 min, added: succinate + rotenone; relative to: CaCl2 maximal swelling).

Some of these lines once more:
CC(C)(c1ccc(O)cc1)c1ccc(O)cc1 has a half-life of 182 min (GC-MS; exposure tank water with snails, reconstituted water; 500 ng/L nominal, 27 °C).
For COc1cccc(CN)c1O, the elimination half-life was 36 min (C57BL/6N mouse, male, spleen; intraperitoneal, 200 mg/kg).
